Results of several laboratories.
Lines come from different studies, so protocols differ. ± marks the error that the study gave.
BRD9: Bromodomain-containing protein 9 (BRD9, Homo sapiens, UniProt Q9H8M2)
Chain of UniProt Q9H8M2 (whole entry, looked up): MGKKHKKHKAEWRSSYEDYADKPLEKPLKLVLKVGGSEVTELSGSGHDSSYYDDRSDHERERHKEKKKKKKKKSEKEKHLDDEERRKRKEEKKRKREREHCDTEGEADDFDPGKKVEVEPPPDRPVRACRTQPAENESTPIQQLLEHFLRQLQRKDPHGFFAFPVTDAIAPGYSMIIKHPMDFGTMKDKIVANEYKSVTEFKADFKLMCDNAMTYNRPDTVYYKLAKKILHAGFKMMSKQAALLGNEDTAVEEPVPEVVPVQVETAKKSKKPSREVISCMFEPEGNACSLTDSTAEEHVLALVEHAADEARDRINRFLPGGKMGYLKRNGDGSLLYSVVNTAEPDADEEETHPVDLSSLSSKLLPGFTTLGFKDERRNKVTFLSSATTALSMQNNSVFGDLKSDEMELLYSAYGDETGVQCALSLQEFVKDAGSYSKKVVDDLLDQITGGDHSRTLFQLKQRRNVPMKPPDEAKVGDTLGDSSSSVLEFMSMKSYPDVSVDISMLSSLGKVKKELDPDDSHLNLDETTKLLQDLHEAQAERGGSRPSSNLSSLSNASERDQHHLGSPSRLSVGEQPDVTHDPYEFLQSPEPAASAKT
Peptidyl-prolyl cis-trans isomerase FKBP1B: Peptidyl-prolyl cis-trans isomerase FKBP1B (Homo sapiens, UniProt P68106)
Chain of UniProt P68106 (whole entry, looked up): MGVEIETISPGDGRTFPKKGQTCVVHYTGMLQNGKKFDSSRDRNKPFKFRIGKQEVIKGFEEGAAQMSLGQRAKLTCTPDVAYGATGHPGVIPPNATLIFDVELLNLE
GAP50: Glideosome-associated protein 50 (GAP50, Plasmodium falciparum, UniProt Q8I2X3)
Chain of UniProt Q8I2X3 (whole entry, looked up): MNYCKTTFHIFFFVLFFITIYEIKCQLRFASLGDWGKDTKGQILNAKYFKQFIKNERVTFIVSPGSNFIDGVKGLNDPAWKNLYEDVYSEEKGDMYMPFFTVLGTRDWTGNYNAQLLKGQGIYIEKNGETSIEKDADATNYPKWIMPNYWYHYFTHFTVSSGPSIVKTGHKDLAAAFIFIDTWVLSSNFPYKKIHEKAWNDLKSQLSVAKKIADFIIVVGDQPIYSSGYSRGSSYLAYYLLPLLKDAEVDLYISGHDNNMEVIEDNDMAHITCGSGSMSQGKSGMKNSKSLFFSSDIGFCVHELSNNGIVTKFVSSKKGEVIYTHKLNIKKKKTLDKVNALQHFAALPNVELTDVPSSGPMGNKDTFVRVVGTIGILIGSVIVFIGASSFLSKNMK
clpP: ATP-dependent Clp protease proteolytic subunit (clpP, Escherichia coli, UniProt P0A6G7)
Chain of UniProt P0A6G7 (whole entry, looked up): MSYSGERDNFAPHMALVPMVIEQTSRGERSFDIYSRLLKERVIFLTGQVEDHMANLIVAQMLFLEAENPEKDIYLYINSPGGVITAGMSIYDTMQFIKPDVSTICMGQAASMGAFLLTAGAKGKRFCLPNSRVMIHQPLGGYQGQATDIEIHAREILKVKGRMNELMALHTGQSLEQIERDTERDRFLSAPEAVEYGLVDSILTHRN
Chain of UniProt Q08638 (whole entry, looked up): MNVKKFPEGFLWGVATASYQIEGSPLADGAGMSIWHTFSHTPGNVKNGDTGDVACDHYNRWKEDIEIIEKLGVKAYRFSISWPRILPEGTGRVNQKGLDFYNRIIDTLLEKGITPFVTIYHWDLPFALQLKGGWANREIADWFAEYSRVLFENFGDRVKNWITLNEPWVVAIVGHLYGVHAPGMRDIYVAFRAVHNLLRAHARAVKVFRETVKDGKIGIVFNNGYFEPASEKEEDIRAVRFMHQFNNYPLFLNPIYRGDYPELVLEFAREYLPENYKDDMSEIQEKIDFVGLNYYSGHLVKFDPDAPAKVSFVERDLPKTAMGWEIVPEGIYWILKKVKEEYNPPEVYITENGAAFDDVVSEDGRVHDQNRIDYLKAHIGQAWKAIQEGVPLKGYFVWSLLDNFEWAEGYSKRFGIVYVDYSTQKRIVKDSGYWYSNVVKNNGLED
Chain of UniProt Q9UBN7 (whole entry, looked up): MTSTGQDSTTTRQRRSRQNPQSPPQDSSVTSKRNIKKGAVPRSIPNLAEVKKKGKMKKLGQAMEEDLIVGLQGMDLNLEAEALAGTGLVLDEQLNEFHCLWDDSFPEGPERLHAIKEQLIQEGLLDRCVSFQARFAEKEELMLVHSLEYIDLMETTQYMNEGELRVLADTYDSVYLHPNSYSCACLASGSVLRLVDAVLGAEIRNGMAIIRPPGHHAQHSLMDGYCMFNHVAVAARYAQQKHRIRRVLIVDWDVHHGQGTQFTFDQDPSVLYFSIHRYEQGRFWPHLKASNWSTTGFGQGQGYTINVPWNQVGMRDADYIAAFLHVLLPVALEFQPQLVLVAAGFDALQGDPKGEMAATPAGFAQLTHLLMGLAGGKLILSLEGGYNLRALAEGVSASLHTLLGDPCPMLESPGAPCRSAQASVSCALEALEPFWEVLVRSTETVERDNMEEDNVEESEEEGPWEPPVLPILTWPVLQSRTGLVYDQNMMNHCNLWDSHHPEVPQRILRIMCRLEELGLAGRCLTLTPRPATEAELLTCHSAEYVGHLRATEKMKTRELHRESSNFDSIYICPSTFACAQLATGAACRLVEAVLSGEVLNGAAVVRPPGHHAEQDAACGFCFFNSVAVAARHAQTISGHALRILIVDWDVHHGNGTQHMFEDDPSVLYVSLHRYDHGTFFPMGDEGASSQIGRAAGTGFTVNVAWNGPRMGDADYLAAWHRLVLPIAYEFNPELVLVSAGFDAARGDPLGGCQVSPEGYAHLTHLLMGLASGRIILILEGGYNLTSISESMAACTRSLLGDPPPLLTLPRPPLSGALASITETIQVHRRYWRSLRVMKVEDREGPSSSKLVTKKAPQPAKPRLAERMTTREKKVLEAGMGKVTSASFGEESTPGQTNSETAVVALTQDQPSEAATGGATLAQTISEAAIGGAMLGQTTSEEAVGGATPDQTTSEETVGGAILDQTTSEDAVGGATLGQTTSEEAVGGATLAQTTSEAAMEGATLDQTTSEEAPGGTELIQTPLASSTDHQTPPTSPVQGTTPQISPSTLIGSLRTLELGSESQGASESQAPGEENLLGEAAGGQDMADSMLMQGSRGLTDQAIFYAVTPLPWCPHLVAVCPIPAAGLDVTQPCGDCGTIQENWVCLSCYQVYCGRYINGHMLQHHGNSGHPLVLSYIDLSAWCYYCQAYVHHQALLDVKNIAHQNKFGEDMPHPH
Chain of UniProt Q9SR05 (whole entry, looked up): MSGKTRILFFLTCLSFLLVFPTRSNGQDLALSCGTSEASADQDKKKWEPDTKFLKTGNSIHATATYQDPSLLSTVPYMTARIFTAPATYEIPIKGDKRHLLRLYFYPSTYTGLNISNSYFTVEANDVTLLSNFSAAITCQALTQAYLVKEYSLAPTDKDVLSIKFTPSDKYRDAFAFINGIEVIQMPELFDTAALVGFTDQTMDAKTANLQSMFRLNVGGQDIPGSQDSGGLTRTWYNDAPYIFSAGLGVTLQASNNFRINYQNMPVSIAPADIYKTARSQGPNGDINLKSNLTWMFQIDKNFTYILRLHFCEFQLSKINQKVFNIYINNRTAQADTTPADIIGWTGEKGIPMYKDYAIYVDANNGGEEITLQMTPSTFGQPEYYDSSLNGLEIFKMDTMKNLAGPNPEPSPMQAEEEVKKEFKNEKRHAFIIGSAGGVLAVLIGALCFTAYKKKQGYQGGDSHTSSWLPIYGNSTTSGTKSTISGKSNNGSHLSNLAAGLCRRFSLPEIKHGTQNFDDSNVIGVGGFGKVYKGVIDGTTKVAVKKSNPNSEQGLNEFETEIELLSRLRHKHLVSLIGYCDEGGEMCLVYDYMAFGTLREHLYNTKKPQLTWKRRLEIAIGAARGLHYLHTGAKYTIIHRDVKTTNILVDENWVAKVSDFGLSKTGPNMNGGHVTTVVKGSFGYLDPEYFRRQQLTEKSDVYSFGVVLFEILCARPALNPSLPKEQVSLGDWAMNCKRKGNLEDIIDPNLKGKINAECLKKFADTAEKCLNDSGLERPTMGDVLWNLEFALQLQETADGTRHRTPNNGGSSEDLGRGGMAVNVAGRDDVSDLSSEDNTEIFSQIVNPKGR
Chain of UniProt Q9SZU7 (whole entry, unmodified, looked up): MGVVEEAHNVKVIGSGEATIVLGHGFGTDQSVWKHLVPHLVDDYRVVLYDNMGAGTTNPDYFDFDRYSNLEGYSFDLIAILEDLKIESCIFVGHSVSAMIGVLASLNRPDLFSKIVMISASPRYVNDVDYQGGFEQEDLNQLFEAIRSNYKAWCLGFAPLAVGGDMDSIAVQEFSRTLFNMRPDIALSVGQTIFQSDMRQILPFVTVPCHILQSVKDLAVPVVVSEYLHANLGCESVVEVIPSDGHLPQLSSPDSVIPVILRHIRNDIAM

`CC(=O)NCCN(c1nc(N2CC3C(CCOc4cc(-c5scnc5C)ccc4CNC(=O)[C@@H]4C[C@@H](O)CN4C(=O)[C@@H](NC(=O)C4(F)CC4)C(C)(C)C)C3C2)nc(N2CC(n3ccnc3)C2)n1)C(C)C` (stereo partly shown) has a Kd of greater than 20000 nM (BRD9; binding, SPR).
The Kd of `C=CC1CN(Cc2ccccn2)C(=O)C2CCCC1N2S(=O)(=NC1C=CCCC1)c1cc(Cl)cc(Cl)c1` (mixture of isomers) is reported as 4030 ± 950 nM (Peptidyl-prolyl cis-trans isomerase FKBP1B; competitive fluorescence polarization; protein 10 nM, with: tracer 1 nM).
`C#CCN1CCN(c2nc(N3CCN(c4ccc(Cc5cc(CNC(=O)[C@@H]6C[C@@H](O)CN6C(=O)[C@@H](NC(=O)C6(F)CC6)C(C)(C)C)c(O)cc5-c5scnc5C)cc4)CC3)nc(N3CCN(C(=O)C4CC4)C3)n2)CC1=O` has a Kd of 455 nM (BRD9; binding, SPR).
`CC(=O)c1cnc2ccc(-c3cc(Cl)c(O)c(Cl)c3)nc2c1N[C@H]1CC[C@H](CN(C)C)CC1` has a Kd of 51600 nM (Receptor-like protein kinase ANXUR1 (ANX1, Arabidopsis thaliana, UniProt Q9SR05); binding, SPR).
`Cc1ncsc1-c1ccc(CNC(=O)[C@@H]2C[C@@H](O)CN2C(=O)[C@@H](NC(=O)C2(F)CC2)C(C)(C)C)c(OCCC2CCN(c3nc(NCC(C)(C)C4(O)CCOC4)nc(N4CCC[C@H]4Cn4ccnn4)n3)CC2)c1` (stereo partly shown) gave a Kd of 2500 nM (BRD9; binding, SPR).
The Kd of `COc1ccc2c(c1)C1CC(C)(N2)c2c(C)nc3ccc(OC)cc3c21` (stereo not shown) is reported as 3840 nM (GAP50; binding, surface plasmon resonance; 1:1 binding model).
`CCCC/C=C/C(=O)N[C@@H](Cc1cc(F)cc(F)c1)C(=O)N[C@@H]1C(=O)N2CCC[C@H]2C(=O)N2CCCC[C@H]2C(=O)N[C@@H](C)C(=O)N2CCC[C@H]2C(=O)O[C@H]1C` gave a Kd of 1300 ± 67 nM (clpP; peptidase activity, activator; 30 °C, with: fluorogenic decapeptide 15 µM).
`CCOC(=O)CCCc1cccc2c(-c3ccc(Oc4ccccc4)cc3)ccnc12` gave a Kd of 47400 nM (GAP50; binding, surface plasmon resonance; 1:1 binding model).
`O=C1[C@@H]2CCC[C@H]([C@@H](C(O)CO)CN1Cc1ccccn1)N2S(=O)(=O)c1cc(Cl)cc(Cl)c1` (stereo partly shown) has a Kd of 3.2 nM (Peptidyl-prolyl cis-trans isomerase FKBP1B; ligand displacement, FP).
`CSCC[C@@H]1NC(=O)[C@@H]2CSCCC(=O)N3CN(CN(C3)C(=O)CCSC[C@H](N)C(=O)N3CCC[C@H]3C(=O)N[C@@H](Cc3cccc4ccccc34)C(=O)N[C@H](CC(=O)O)C(=O)N2)C(=O)CCSC[C@@H](C(N)=O)NC(=O)[C@H](Cc2c[nH]c3ccccc23)NC(=O)[C@@H]2C[C@@H](O)CN2C(=O)[C@@H]2CCCN2C(=O)[C@H]([C@@H](C)O)NC(=O)[C@H](CO)NC(=O)[C@H](Cc2c[nH]c3ccccc23)NC(=O)[C@H](CC(=O)O)NC(=O)[C@H](CCCCNC(=N)N)NC1=O` has a Kd of 0.694 nM (Nectin-4 (Homo sapiens, UniProt Q96NY8); binding, SPR).
For `Cn1ncc2cc(-c3cncc(Cl)c3N3CCC4(CCNC4=O)CC3)ccc21`, the Kd was 18200 nM (Serine/threonine-protein kinase MRCK beta (CDC42BPB, Homo sapiens, UniProt Q9Y5S2); cell-free assay; lysate).
`C#CCN1CCN(c2nc(N3CCC(CCOc4cc(-c5scnc5C)ccc4CNC(=O)[C@@H]4C[C@@H](O)CN4C(=O)[C@@H](NC(=O)C4(F)CC4)C(C)(C)C)CC3)nc(N3CCN(C(=O)C4CC4)C3)n2)CC1=O` gave a Kd of 1040 nM (BRD9; binding, SPR).
The Kd of `COc1ccc(C(=O)NO)cc1NC(=O)c1ccc(-c2ccccc2)cc1` is reported as greater than 30200 nM (Protein deacetylase HDAC6 (HDAC6, Homo sapiens, UniProt Q9UBN7); inhibitor, competition pulldown; SW620 and MV4-11 lysate; 1 h).
`Cc1c[nH]c2nccc(-c3ccc(C(=O)N[C@@H]4c5c(F)cc(C(F)F)cc5C[C@@H]4O)cn3)c12` gave a Kd of 50 nM (Tyrosine-protein kinase JAK3, JH1 (JAK3, Homo sapiens, UniProt P52333); binding, competition with immobilised ligand).
`CCCC/C=C/C(=O)N[C@@H](Cc1cc(F)cc(F)c1)C(=O)N[C@H]1COC(=O)[C@@H]2CCCN2C(=O)[C@H](C)NC(=O)[C@@H]2C[C@@H](C)CCN2C(=O)[C@@H]2CCCN2C1=O` gave a Kd of 3000 ± 100 nM (clpP; peptidase activity, activator; 30 °C, with: fluorogenic decapeptide 15 µM).
With `CCc1nc2cc3ccccc3cc2cc1C(=O)N1CCC[C@H]1C(=O)N[C@@H](C/C=C\C[C@H](NC(=O)[C@@H]1CCCN1C(=O)c1cc2cc3ccccc3cc2nc1CC)C(=O)N[C@@H](CCCCN)C(=O)NCCCN)C(=O)N[C@@H](CCCCN)C(=O)NCCCN` the Kd was 26 nM ((CUG)4 RNA; SPR).
For `Cc1ncsc1-c1ccc(CNC(=O)[C@@H]2C[C@@H](O)CN2C(=O)[C@@H](NC(=O)C2(F)CC2)C(C)(C)C)c(OCCC2CCN(c3nc(N(C)CCNC(=O)C(C)C)nc(N4CCn5nnc(CO)c5C4)n3)CC2)c1`, the Kd was 7000 nM (BRD9; binding, SPR).
`Cc1nc2ccc(F)cc2c2c1C1(C)CC2c2cc(F)ccc2N1` (stereo not shown) gave a Kd of 12500 nM (GAP50; binding, surface plasmon resonance; 1:1 binding model).
For `Cc1cccc2c1N(C(=O)n1ccnn1)CC2`, the Kd was 10900 nM (KAI2 (Arabidopsis thaliana, UniProt Q9SZU7, L218A); ITC; L218A mutant, mean).
`OC[C@H]1c2[nH]cnc2[C@H](O)[C@@H](O)[C@@H]1O` has a Kd of 28300 nM (bglA (Thermotoga maritima, UniProt Q08638); binding, ITC; pH 6.8).
`C=CC1CN(Cc2ccccn2)C(=O)C2CCCC1N2[S+]([O-])c1cc(Cl)cc(Cl)c1` (stereo not shown) has a Kd of 211 nM (Peptidyl-prolyl cis-trans isomerase FKBP1B; ligand displacement, FP).
With `CCc1nc2cc3ccccc3cc2cc1C(=O)N1CCC[C@H]1C(=O)N[C@@H](CCC/C=C/CCC[C@H](NC(=O)[C@@H]1CCCN1C(=O)c1cc2cc3ccccc3cc2nc1CC)C(=O)N[C@@H](CCCCN)C(=O)NCCCN)C(=O)N[C@@H](CCCCN)C(=O)NCCCN` the Kd was 69 nM ((CUG)4 RNA; SPR).
